# Experimental data pooled from the literature.
# Protocols differ between the studies behind these lines. ± marks the error that the study gave.
SMILES,tested on,assay,test system,setting,scale,measurement,value
CCCCCCCCCC(=O)OCCSCCC(=O)N[C@H](CCN)C(=O)N[C@@H](CCN)C(=O)N[C@@H](CCN)C(=O)N[C@@H](CC(C)C)C(=O)N[C@H](Cc1ccccc1)C(=O)N[C@@H](CCN)C(=O)N[C@@H](CCN)C(=O)N[C@@H](CC(C)C)C(N)=O,Acinetobacter calcoaceticus,BHI agar spot plating,,"24 h, 37 °C",,MBC,32 µM
CN(C)c1nc(NCc2ccc(F)cc2)c(/N=N/c2ccc(Cl)cc2)c(N(C)C)n1,Ostrinia furnacalis,leaf dipping,,"50 mg/L, 96 h",,mortality,55.3 ± 5.8%
CCOC(=O)C1(CC=C(C)C)Oc2cc(F)ccc2N(CC=C(C)C)C1=O (stereo not drawn),Setaria viridis,"fresh weight, greenhouse postemergence",,"postemergence, 150 g ai/ha, 21 days",,inhibition,34 ± 0.68%
O=C(Oc1cc(OC(=O)c2cc(O)c(O)c(O)c2)c2ccccc2c1)c1cc(O)c(O)c(O)c1,Herpes simplex virus 2,"viral replication, RT-qPCR","Vero, acyclovir-resistant",,,IC50,1970 ± 20 nM
O=C(c1cccc(-c2ccc3ncnc(Nc4ccc(OCc5cccc(F)c5)c(Cl)c4)c3c2)c1)N1CCCC1,Trypanosoma cruzi,intracellular amastigote growth,"NIH 3T3, Tulahuen, β-galactosidase-expressing","10 µM, 96 h",,inhibition,7%
FC(F)(F)c1cccc(CNc2nc(NC3CCN(Cc4ccccc4)CC3)c3nc[nH]c3n2)c1,Cryptococcus neoformans,"RNA-seq, refers to: CNAG_05316",,"48 µg/mL, 3 h",reference: untreated,mRNA fold change,1.29
CC[C@H](C)[C@@H]1NC(=O)[C@H](CO)NC(=O)[C@H](CCCCN)NC(=O)[C@@H]2CSSC[C@@H](C(=O)N[C@@H](Cc3ccc(O)cc3)C(N)=O)NC(=O)[C@H](CCCCN)NC(=O)[C@@H]3CSSC[C@H](NC(=O)[C@H](CCCNC(=N)N)NC(=O)[C@H](CC(C)C)NC(=O)[C@H](CC(=O)O)NC(=O)[C@H](CC(=O)O)NC(=O)[C@H](CCC(=O)O)NC(=O)[C@H](CC(N)=O)NC(=O)[C@H](Cc4c[nH]c5ccccc45)NC(=O)[C@@H]4CCCN4C(=O)CNC(=O)[C@H](CC(N)=O)NC(=O)[C@@H](NC(=O)CNC(=O)[C@H](Cc4ccccc4)NC(=O)CN)CSSC[C@H](NC(=O)[C@H](Cc4ccc(O)cc4)NC(=O)CNC(=O)CNC(=O)[C@H](CCCCN)NC(=O)[C@H](Cc4ccc(O)cc4)NC(=O)CNC(=O)[C@H](CCCCN)NC1=O)C(=O)N[C@@H](C)C(=O)N[C@@H](CCCCN)C(=O)NCC(=O)NCC(=O)N[C@@H](Cc1ccccc1)C(=O)N[C@@H](C(C)C)C(=O)N3)C(=O)N[C@@H](Cc1c[nH]cn1)C(=O)N[C@@H](CC(N)=O)C(=O)N[C@@H](Cc1c[nH]cn1)C(=O)N2,Streptococcus pneumoniae,,D39,"24 h, 37 °C, 99.9% killing",,MBC,0.13 µM
CC(=O)CCC1C(=O)NC(C(C)C)C(=O)NC(Cc2cc(O)cc(F)c2)C(=O)N2CCCC(N2)C(=O)OC(C(C)=CC=CC(=O)N2CCCCO2)CC=CC=CC(O)C(C)C1O (stereo not drawn),Hepatitis C virus,viral replication,"Huh7, Con1 replicon",20% fetal bovine serum,,EC50,12 ± 2 nM
CCCC(C)Oc1cccc(NC(=O)c2cccnc2)c1 (stereo not drawn),Saccharomyces cerevisiae,,S288c wild type,,,MIC50,16 µg/mL
Cc1cc(C(=O)Nc2nc3cccc(C)c3n2[C@H]2CCCCN(C(=O)/C=C/CN(C)C)C2)ccn1,Trypanosoma brucei,propidium iodide flow cytometry,bloodstream form,"concentration not given, 8 h",,multinucleated cells,9.99%
CC(C)[C@H]1NC(=O)[C@H](Cc2ccccc2)NC(=O)[C@@H](C(C)C)NC(=O)[C@@H](C)NC(=O)[C@H](CO)NC(=O)[C@@H](Cc2c(-c3ccc(-c4ccc(-c5ccccc5)cc4)cc3)[nH]c3ccccc23)NC(=O)[C@@H](C)NC1=O,Mycobacterium marinum,,,,,MIC90,40.4 µM
O=C1NC2(CC2)COc2ncc(F)cc2[C@H]2COCCN2c2ccn3ncc1c3n2,,,"Sprague-Dawley rat, female, liver","oral, 20 mg/kg/day, 4 weeks dosing, end of recovery",,organ-to-body weight ratio,2.98 ± 0.087%

# A few entries again:
SMILES,tested on,assay,test system,setting,scale,measurement,value
CCCCCCCCCC(=O)OCCSCCC(=O)N[C@H](CCN)C(=O)N[C@@H](CCN)C(=O)N[C@@H](CCN)C(=O)N[C@@H](CC(C)C)C(=O)N[C@H](Cc1ccccc1)C(=O)N[C@@H](CCN)C(=O)N[C@@H](CCN)C(=O)N[C@@H](CC(C)C)C(N)=O,Acinetobacter calcoaceticus,BHI agar spot plating,,"24 h, 37 °C",,MBC,32 µM
